Published values of several laboratories.
Each line is one published result; not all experiments were run side by side. Numbers after ± are the reported error.
Methyl-accepting chemotaxis protein CtaA sensing domain: Methyl-accepting chemotaxis protein CtaA, sensing domain (Pseudomonas fluorescens, UniProt Q3K7T6)
Rbp1: Retinol-binding protein 1 (Rbp1, Rattus norvegicus, UniProt P02696)
Chain of UniProt P02696 (whole entry, looked up): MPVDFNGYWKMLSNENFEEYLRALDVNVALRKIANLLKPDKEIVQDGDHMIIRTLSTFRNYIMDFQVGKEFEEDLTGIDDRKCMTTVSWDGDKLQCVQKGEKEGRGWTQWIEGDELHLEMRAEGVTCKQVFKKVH
STARD3 START domain: StAR-related lipid transfer protein 3, START domain (STARD3, Homo sapiens, UniProt Q14849)
Chain of UniProt Q14849 (whole entry, looked up): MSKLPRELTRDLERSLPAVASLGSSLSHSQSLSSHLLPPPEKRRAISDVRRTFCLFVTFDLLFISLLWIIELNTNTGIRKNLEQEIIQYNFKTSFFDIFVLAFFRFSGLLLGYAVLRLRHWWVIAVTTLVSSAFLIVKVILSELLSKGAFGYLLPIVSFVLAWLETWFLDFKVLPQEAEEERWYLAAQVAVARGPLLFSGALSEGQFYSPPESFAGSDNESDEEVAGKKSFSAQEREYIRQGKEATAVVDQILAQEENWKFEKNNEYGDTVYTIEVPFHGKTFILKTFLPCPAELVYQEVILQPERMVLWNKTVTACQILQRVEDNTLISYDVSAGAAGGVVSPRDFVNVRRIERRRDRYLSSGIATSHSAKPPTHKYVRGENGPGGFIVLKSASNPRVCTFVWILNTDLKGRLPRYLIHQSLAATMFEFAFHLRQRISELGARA
Methyl-accepting chemotaxis protein CtaA: Methyl-accepting chemotaxis protein CtaA (Pseudomonas fluorescens, UniProt Q3K7T6)
Chain of UniProt P53215 (whole entry, unmodified, looked up): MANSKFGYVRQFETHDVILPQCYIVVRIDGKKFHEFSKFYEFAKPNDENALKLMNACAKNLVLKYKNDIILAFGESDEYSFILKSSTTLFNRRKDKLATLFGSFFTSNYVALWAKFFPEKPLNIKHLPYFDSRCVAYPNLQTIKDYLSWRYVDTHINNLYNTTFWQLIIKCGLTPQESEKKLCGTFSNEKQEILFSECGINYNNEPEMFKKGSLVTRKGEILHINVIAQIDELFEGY
Chain of UniProt Q14145 (whole entry, looked up): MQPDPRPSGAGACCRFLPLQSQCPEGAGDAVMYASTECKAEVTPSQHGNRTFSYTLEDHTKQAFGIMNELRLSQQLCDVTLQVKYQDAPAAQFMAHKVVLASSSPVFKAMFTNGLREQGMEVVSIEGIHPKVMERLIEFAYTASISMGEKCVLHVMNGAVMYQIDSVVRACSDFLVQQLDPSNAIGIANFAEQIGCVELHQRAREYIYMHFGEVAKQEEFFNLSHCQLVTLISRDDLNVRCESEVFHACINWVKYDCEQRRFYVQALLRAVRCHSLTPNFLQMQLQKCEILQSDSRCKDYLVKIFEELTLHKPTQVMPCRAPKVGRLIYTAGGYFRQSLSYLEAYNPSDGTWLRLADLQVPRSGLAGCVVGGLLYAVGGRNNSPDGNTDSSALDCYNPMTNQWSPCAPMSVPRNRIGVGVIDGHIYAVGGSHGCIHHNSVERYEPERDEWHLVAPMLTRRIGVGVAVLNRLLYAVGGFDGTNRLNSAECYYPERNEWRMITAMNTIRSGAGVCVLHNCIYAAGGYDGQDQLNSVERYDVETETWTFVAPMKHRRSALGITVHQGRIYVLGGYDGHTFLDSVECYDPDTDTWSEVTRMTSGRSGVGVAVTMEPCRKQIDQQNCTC
Chain of UniProt Q9UNA4 (whole entry, looked up): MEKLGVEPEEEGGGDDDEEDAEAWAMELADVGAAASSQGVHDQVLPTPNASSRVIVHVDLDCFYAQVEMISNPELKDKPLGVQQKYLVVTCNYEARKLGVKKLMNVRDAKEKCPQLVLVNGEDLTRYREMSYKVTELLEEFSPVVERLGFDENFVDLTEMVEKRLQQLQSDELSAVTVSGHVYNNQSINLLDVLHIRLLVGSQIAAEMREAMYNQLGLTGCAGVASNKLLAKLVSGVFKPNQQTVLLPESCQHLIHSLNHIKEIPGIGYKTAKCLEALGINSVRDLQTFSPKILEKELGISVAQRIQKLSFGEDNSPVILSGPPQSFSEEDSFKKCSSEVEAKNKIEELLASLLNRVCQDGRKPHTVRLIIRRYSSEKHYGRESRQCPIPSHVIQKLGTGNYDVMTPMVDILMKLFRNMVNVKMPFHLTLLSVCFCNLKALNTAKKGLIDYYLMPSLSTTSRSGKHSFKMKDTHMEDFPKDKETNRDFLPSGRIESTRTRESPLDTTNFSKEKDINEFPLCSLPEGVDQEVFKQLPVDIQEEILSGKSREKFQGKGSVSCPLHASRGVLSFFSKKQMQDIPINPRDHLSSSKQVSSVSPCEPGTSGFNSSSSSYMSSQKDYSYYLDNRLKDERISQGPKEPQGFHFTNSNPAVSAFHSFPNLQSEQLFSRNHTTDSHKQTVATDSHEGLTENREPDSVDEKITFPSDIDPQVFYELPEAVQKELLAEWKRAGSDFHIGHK
Chain of UniProt P27694 (whole entry, looked up): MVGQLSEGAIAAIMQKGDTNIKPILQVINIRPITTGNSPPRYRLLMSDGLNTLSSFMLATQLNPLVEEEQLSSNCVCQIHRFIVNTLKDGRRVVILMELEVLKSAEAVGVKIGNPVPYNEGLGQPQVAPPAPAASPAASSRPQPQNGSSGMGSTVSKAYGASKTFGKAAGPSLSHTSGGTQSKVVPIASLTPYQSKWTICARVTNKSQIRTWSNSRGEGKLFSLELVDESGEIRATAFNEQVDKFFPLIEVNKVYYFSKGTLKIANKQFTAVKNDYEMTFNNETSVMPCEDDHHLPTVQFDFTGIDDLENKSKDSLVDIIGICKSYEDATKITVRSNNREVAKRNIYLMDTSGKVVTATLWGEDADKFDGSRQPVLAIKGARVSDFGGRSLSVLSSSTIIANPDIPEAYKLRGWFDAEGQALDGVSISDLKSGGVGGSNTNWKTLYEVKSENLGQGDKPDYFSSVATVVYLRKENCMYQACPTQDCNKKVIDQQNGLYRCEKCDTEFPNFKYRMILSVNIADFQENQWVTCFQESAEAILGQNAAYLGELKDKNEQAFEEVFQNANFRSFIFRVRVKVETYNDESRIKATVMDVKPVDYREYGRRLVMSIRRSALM
Chain of UniProt Q07741 (whole entry, looked up): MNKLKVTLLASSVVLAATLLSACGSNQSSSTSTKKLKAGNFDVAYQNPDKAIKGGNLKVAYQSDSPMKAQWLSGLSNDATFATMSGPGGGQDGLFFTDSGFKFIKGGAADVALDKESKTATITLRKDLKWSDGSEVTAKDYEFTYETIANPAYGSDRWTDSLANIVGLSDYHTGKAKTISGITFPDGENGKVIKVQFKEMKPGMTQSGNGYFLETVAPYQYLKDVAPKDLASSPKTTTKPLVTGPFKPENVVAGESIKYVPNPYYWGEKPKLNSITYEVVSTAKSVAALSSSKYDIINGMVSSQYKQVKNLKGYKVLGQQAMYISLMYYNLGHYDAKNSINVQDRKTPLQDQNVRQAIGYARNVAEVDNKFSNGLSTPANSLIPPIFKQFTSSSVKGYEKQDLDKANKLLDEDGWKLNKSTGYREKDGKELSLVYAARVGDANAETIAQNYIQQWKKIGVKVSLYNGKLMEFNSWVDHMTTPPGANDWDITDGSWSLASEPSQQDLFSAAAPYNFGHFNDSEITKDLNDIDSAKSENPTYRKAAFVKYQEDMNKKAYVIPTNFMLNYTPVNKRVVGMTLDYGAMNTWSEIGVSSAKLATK
Chain of UniProt P32198 (whole entry, looked up): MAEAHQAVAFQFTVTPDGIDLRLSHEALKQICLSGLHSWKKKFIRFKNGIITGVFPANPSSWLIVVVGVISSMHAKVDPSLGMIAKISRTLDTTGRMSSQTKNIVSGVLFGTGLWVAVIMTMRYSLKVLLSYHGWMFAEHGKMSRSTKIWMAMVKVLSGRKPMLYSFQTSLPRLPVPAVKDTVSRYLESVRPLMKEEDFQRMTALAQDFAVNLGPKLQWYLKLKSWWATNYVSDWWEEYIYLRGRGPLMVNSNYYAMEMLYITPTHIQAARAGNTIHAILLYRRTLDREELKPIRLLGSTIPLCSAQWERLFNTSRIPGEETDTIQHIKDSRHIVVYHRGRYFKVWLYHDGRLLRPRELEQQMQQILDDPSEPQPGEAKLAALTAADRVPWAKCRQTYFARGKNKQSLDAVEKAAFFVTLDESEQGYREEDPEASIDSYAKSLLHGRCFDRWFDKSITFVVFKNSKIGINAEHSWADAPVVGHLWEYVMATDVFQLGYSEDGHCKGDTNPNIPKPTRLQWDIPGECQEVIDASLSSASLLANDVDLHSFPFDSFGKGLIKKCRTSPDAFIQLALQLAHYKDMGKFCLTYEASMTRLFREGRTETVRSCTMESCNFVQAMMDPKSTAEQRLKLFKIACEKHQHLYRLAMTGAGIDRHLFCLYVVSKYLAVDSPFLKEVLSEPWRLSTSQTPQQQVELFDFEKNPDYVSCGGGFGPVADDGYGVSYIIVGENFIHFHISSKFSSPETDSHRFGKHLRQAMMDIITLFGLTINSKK
Chain of UniProt P49902 (whole entry, unmodified, looked up): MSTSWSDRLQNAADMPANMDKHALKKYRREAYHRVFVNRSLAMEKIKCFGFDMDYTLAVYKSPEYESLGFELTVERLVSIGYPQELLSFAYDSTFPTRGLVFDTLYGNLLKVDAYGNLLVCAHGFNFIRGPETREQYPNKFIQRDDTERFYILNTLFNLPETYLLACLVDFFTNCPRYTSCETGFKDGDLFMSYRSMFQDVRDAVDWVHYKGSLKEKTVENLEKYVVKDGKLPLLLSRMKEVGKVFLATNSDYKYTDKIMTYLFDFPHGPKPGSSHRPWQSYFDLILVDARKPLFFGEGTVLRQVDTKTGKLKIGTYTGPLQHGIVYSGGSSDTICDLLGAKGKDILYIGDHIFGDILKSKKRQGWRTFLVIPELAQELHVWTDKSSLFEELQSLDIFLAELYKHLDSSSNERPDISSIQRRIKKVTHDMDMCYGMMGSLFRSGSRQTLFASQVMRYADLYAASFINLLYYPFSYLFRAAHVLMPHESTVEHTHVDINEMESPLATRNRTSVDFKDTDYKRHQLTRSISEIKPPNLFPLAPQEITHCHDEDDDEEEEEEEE
Chain of UniProt P06702 (whole entry, looked up): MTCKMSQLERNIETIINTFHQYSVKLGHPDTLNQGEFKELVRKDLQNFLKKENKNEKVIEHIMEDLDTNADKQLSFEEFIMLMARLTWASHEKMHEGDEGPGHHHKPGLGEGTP

Molecule | target | assay | system | setting | Kd
C#CC[C@@H](NC(=O)[C@@H]1C[C@@H](C2CCCCC2)CN1C(=O)CSC1CCN(C(=O)CC[C@H](NC(=O)N[C@@H](CCC(=O)O)C(=O)O)C(=O)O)CC1)C(=O)NCCOCCOCCNC(=S)Nc1ccc2c(c1)C(=O)OC21c2ccc(O)cc2Oc2cc(O)ccc21 | N-acetylated-alpha-linked acidic dipeptidase 2 (Homo sapiens, UniProt Q9Y3Q0) | cell-free assay, FP |  |  | 0.037 µM
MDPHAHNGGGS | Protein S100-A9 (S100A9, Homo sapiens, UniProt P06702) | SPR | peptide | 6.25 to 100 µM, pH 7.4 | no binding
N[C@@H](CO)C(=O)O | Methyl-accepting chemotaxis protein CtaA sensing domain | binding, thermal shift, zero heat capacity |  |  | 18 ± 4 µM
CC1=C(/C=C/C(C)=C/C=C/C(C)=C/C=O)C(C)(C)CCC1 | Rbp1 | binding, fluorescence titration |  | pH 7.4, 25 °C | 0.009 ± 0.004 µM
N[C@@H](Cc1ccc(OP(=O)(O)O)cc1)C(=O)O | Tyrosine-protein phosphatase non-receptor type 11, N-SH2 domain (PTPN11, Homo sapiens, UniProt Q06124) | binding to N-SH2 domain |  | 298 K | 565 µM
CC/C=C/C=C\C=C/C=C/CCCCCCCC(=O)SCCNC(=O)CCNC(=O)[C@H](O)C(C)(C)COP(=O)(O)OP(=O)(O)OC[C@H]1O[C@@H](n2cnc3c(N)ncnc32)[C@H](O)[C@@H]1OP(=O)(O)O (relative stereo) | Carnitine O-palmitoyltransferase 1, liver isoform, C-terminal peptide (Rattus norvegicus, UniProt P32198) | FRET |  |  | 0.02 ± 0.006 µM
Nc1cc[nH]c(=O)n1 | type 1 ribosome-inactivating protein (Momordica balsamina, UniProt D9J2T9) | surface plasmon resonance |  | 25 °C | 41 µM
CC1=C(/C=C/C(C)=C/C=C/C(C)=C/C=C/C=C(C)/C=C/C=C(C)/C=C/C2=C(C)C[C@@H](O)CC2(C)C)C(C)(C)C[C@H](O)C1 | STARD3 START domain | binding, SPR |  | 25 °C | 1.6 ± 0.01 µM
NC(=O)c1c(NC(=O)c2ccc3[nH]cnc3c2)sc2c1CCCC2 | Cytosolic purine 5'-nucleotidase (Homo sapiens, UniProt P49902, D52N/R367Q) | binding, surface plasmon resonance |  | substrate free | 70.9 µM
CC1=C(/C=C/C(C)=C/C=C/C(C)=C/CO)C(C)(C)CCC1 | Rbp1 | binding, fluorescence titration |  | pH 7.4, 25 °C | 0.003 ± 0.002 µM
O=C(O)c1cc(NC(=O)C2CC2c2ccccc2)ccc1O (stereo not drawn) | GTPase KRas (KRAS, Homo sapiens, UniProt P01116) | microscale thermophoresis |  | second low-affinity site, added: GNP-bound | 10 µM
O=C(NN=Cc1ccc(C[n+]2ccccc2)cc1)c1ccc2ccc3ccc(C(=O)NN=Cc4ccc(C[n+]5ccccc5)cc4)nc3c2n1 | telomeric G4 DNA hybrid-1 | binding, native ESI-MS | 100 mM trimethylammonium acetate | 1 mM KCl | 0.31 µM
C[C@H](N)C(=O)O | Methyl-accepting chemotaxis protein CtaA | binding, ITC |  | melting temperature | 7.4 ± 0.4 µM
Nc1ncnc2c1ncn2[C@@H]1O[C@H](COP(=O)(O)O)[C@@H](OP(=O)(O)O)[C@H]1O | SULT2A1 (Homo sapiens, UniProt Q06520) | binding, tryptophan fluorescence |  | pH 7.0, 37 °C, ligand-free enzyme | 536 ± 26 µM
CC(=O)N[C@@H](CC(C)C)C(=O)N[C@@H](CCCCN)C(=O)N[C@@H](CCCCN)C(=O)N[C@@H](CC(C)C)C(=O)N[C@@H](CC(C)C)C(=O)N[C@@H](CCCCN)C(=O)N[C@@H](CC(C)C)C(=O)N[C@@H](CC(C)C)C(=O)N[C@@H](CCCCN)C(=O)N[C@@H](CCCCN)C(=O)N[C@@H](CC(C)C)C(=O)N[C@@H](CC(C)C)C(=O)N[C@@H](CCCCN)C(=O)N[C@@H](Cc1c[nH]c2ccccc12)C(=O)N[C@@H](C)C(=O)NCC(N)=O | 16S rRNA A-site hairpin (Escherichia coli) | competitive fluorescence anisotropy |  | pH 7.4, 20 °C, added: rhodamine-Rev peptide | 0.0033 ± 0.0003 µM
[I-].[K+] | SLC4A1 (Homo sapiens, UniProt P02730) | Cl- exchange, inhibitor, 36Cl flux, one-site model | erythrocytes | site C protonated | 940 µM
CC(=O)N([O-])CCCCCNC(=O)CCC(=O)N([O-])CCCCCNC(=O)CCC(=O)N([O-])CCCCCN.[Fe+3] | Iron(3+)-hydroxamate-binding protein YxeB (yxeB, Bacillus subtilis, UniProt P54941) | binding, Trp fluorescence quenching |  | pH 7.4, added: yxeB 100 nM | 0.05 ± 0.03 µM
CC(C)[C@H](N)C(=O)O | Methyl-accepting chemotaxis protein CtaA | binding, ITC |  | melting temperature | 4 ± 1 µM

Molecule | target | assay | system | setting | Kd
CC(=O)N[C@@H](CC(C)C)C(=O)N[C@@H](CCCCN)C(=O)N[C@@H](CCCCN)C(=O)N[C@@H](Cc1c[nH]c2ccccc12)C(=O)N[C@@H](CC(C)C)C(=O)N[C@@H](CCCCN)C(=O)N[C@@H](CC(C)C)C(=O)N[C@@H](CC(C)C)C(=O)N[C@@H](CCCCN)C(=O)N[C@@H](CCCCN)C(=O)N[C@@H](CC(C)C)C(=O)N[C@@H](CC(C)C)C(=O)N[C@@H](CCCCN)C(=O)N[C@@H](CC(C)C)C(=O)N[C@@H](C)C(=O)NCC(N)=O | 16S rRNA A-site hairpin (Escherichia coli) | competitive fluorescence anisotropy |  | pH 7.4, 20 °C, added: rhodamine-Rev peptide | 0.015 ± 0.001 µM
Cc1ccc(C(=O)Nc2cc(Br)ccc2C(=O)O)cc1S(=O)(=O)Nc1ccc(Cl)c(Cl)c1 | Replication protein A 70 kDa DNA-binding subunit, N-terminal domain (RPA1, Homo sapiens, UniProt P27694) | fluorescence polarization competition |  | added: FITC-ATRIP probe | 0.81 ± 0.3 µM
NC[C@@H]1O[C@H](O[C@H]2[C@@H](O)[C@H](O[C@@H]3[C@@H](O)[C@H](N)C[C@H](N)[C@H]3O[C@H]3O[C@H](CO)[C@@H](O)[C@H](O)[C@H]3N)O[C@@H]2CO)[C@H](N)[C@@H](O)[C@@H]1O | HIV-1 SL2 RNA stem-loop | binding, ESI-FTMS titration |  | pH 7.5 | 8.8 ± 1.1 µM
CC(C)[C@H](NC(=O)CNC(=O)[C@H](CC(N)=O)NC(=O)[C@H](CCCNC(=N)N)NC(=O)[C@H](Cc1ccccc1)NC(=O)[C@@H](N)CO)C(=O)NCC(=O)N[C@@H](CO)C(=O)NCC(=O)N[C@H](C(=O)N[C@@H](CCCCN)C(=O)N[C@@H](CCCCN)C(=O)N[C@H](C(=O)N[C@@H](CO)C(=O)N[C@@H](Cc1ccccc1)C(=O)N[C@@H](CCCNC(=N)N)C(=O)N[C@@H](CCCNC(=N)N)C(=O)N[C@@H](C)C(=O)N[C@@H](CCCCN)C(=O)N[C@@H](CCC(N)=O)C(=O)O)[C@@H](C)O)C(C)C | Oligopeptide-binding protein OppA (oppA, Lactococcus lactis subsp. lactis, UniProt Q07741) |  |  |  | 1800 ± 100 µM
CC(C)C[C@H](N)C(=O)O | Methyl-accepting chemotaxis protein CtaA sensing domain | binding, thermal shift, unfolding equilibrium |  |  | 11 ± 3 µM
Cc1ccnn1-c1cccc(NC(=O)CC2OC(=O)c3ccccc32)c1 (stereo not drawn) | Complement C3 (Homo sapiens, UniProt P01024) | binding, SPR |  |  | 450 µM
CN(C)[C@@H]1C(O)=C(C(N)=O)C(=O)[C@@]2(O)C(O)=C3C(=O)c4c(O)ccc(Cl)c4[C@@](C)(O)[C@H]3C[C@@H]12 | HIV-1 SL2 RNA stem-loop | binding, ESI-FTMS titration |  | pH 7.5 | 161 ± 14.8 µM
Nc1nc2c(ncn2[C@@H]2O[C@H](COP(=O)(O)OP(=O)(O)OP(=O)(O)O)[C@@H](O)[C@H]2O)c(=O)[nH]1 | tRNA(His) guanylyltransferase (THG1, Saccharomyces cerevisiae, UniProt P53215, K96A) | nucleotidyl transfer, substrate, single-turnover kinetics |  | pH 7.5, room temperature, added: ppp-tRNA(His) | 240 ± 70 µM
foliosidine | bft-3, proprotein (Bacteroides fragilis, UniProt O86049) | isothermal titration calorimetry |  | pH 7.4, 25 °C, zinc-bound, exosite binding | 14 µM
NC1(C(=O)NCCCn2cc(-c3ccc(OC(F)(F)F)cc3)c3cc(CN4CCN(Cc5c(Cl)cccc5Cl)CC4)ccc32)CCNCC1 | GTPase KRas, GppNHp-bound (KRAS, Homo sapiens, UniProt P01116, G12D) | binding, 19F NMR titration |  |  | < 20 µM
CS(=O)(=O)c1ccc(-c2nn(-c3ccc(C#N)cc3)cc2C(=O)Nc2cccc(F)c2)cc1 | ALDH1A2 (Homo sapiens, UniProt O94788) | binding, isothermal titration calorimetry |  | 30 °C, added: NAD 1 mM | 1.1 ± 0.28 µM
C[C@H]1O[C@@H](O[C@H]2CC[C@@]3(C)[C@@H](CC[C@]4(C)[C@@H]3C=CC3=C5CC(C)(C)CC[C@]5(CO)[C@@H](O)C[C@]34C)[C@]2(C)CO)[C@H](O)[C@@H](O[C@@H]2O[C@H](CO)[C@@H](O)[C@H](O)[C@H]2O)[C@H]1O | SIRT1 (Homo sapiens, UniProt Q96EB6) | binding, MST |  |  | 97.6 µM
Nc1ncnc2c1ncn2[C@@H]1O[C@H](COP(=O)(O)OP(=O)(O)OP(=O)(O)O)[C@@H](O)[C@H]1O | tRNA(His) guanylyltransferase (THG1, Saccharomyces cerevisiae, UniProt P53215, N161A) | tRNA(His) adenylylation, substrate, single-turnover kinetics |  | pH 6.0, room temperature, added: p-tRNA(His) | 1400 ± 400 µM
CC1=C(/C=C/C(C)=C/C=C/C(C)=C/C=C/C=C(C)/C=C/C=C(C)/C=C/C2=C(C)CCCC2(C)C)C(C)(C)CCC1 | STARD3 START domain | binding, SPR |  | 25 °C | 2.3 ± 0.06 µM
NC[C@H]1O[C@H](O[C@H]2[C@H](O)[C@@H](O[C@H]3O[C@H](CO)[C@@H](O)[C@H](N)[C@H]3O)[C@H](N)C[C@@H]2N)[C@H](N)C[C@@H]1O | HIV-1 SL2 RNA stem-loop | binding, ESI-FTMS titration |  | pH 7.5 | 9.7 ± 1.6 µM
CC[C@H](C)[C@H](NC(C)=O)C(=O)N[C@@H](CC(N)=O)C(=O)N[C@H](C(=O)N[C@@H](CCCNC(=N)N)C(=O)N[C@@H](CCCCN)C(=O)N[C@@H](CCCNC(=N)N)C(=O)N[C@@H](CC(N)=O)C(=O)N[C@H](C(=O)N[C@@H](CCC(=O)O)C(=O)N[C@@H](CO)C(=O)NCC(=O)N[C@@H](CCC(=O)O)C(=O)N[C@@H](CCC(=O)O)C(=O)N[C@@H](CCC(=O)O)C(=O)N[C@@H](CC(C)C)C(=O)N[C@@H](C)C(=O)N[C@@H](CO)C(=O)N[C@@H](CCCCN)C(=O)N[C@@H](CC(C)C)C(=O)N[C@@H](CC(=O)O)C(N)=O)C(C)C)C(C)C | KEAP1 (Homo sapiens, UniProt Q14145) | binding, ITC |  | pH 7 | 0.23 µM
CC(=O)N[C@@H](CC(C)C)C(=O)N[C@@H](CCCCN)C(=O)N[C@@H](CCCCN)C(=O)N[C@@H](CC(C)C)C(=O)N[C@@H](CC(C)C)C(=O)N[C@@H](CCCCN)C(=O)N[C@@H](CC(C)C)C(=O)N[C@@H](Cc1c[nH]c2ccccc12)C(=O)N[C@@H](CCCCN)C(=O)N[C@@H](CCCCN)C(=O)N[C@@H](CC(C)C)C(=O)N[C@@H](CC(C)C)C(=O)N[C@@H](CCCCN)C(=O)N[C@@H](CC(C)C)C(=O)N[C@@H](C)C(=O)NCC(N)=O | 16S rRNA A-site hairpin (Escherichia coli) | competitive fluorescence anisotropy |  | pH 7.4, 20 °C, added: rhodamine-Rev peptide | 0.065 ± 0.008 µM
Cc1cn([C@H]2C[C@H](O)[C@@H](COP(=O)(O)OP(=O)(O)OP(=O)(O)O)O2)c(=O)[nH]c1=O | DNA polymerase iota (Homo sapiens, UniProt Q9UNA4) | substrate |  | pH 8.0, 37 °C, pre-steady-state, Mg2+, added: dNTP opposite O2-POB-dT template | 42 ± 18 µM

Excerpt of the above:
Molecule | target | assay | system | setting | Kd
CC1=C(/C=C/C(C)=C/C=C/C(C)=C/C=C/C=C(C)/C=C/C=C(C)/C=C/C2=C(C)C[C@@H](O)CC2(C)C)C(C)(C)C[C@H](O)C1 | STARD3 START domain | binding, SPR |  | 25 °C | 1.6 ± 0.01 µM
NC(=O)c1c(NC(=O)c2ccc3[nH]cnc3c2)sc2c1CCCC2 | Cytosolic purine 5'-nucleotidase (Homo sapiens, UniProt P49902, D52N/R367Q) | binding, surface plasmon resonance |  | substrate free | 70.9 µM
CC1=C(/C=C/C(C)=C/C=C/C(C)=C/CO)C(C)(C)CCC1 | Rbp1 | binding, fluorescence titration |  | pH 7.4, 25 °C | 0.003 ± 0.002 µM
